Assay results from different studies.
Compare with care: the assays were run in different laboratories.
Organism: Acinetobacter baumannii

Compound | test | test system | conditions | how to read | MIC
CC(C)C[C@H](NC(=O)[C@H](Cc1ccc(O)cc1)NC(=O)[C@@H]1CCCN1C(=O)[C@H](CCCNC(=N)N)NC(=O)[C@@H]1CCCN1C(=O)[C@H](CCCCN)NC(=O)[C@H](CC(=O)O)NC(=O)[C@@H]1CCCN1C(=O)[C@H](CCCNC(=N)N)NC(=O)C1(N)CCCCC1)C(=O)N1CCC[C@H]1C(=O)N[C@@H](CCCNC(=N)N)C(=O)N1CCC[C@H]1C(=O)N[C@@H](CCCNC(=N)N)C(=O)N1CCC[C@H]1C(=O)N1CCC[C@H]1C(=O)N[C@@H](CCCNC(=N)N)C(=O)N1CCC[C@H]1C(=O)N[C@H](C(=O)N[C@@H](CCCNC(=N)N)C(=O)N[C@@H](CSCC(N)=O)C(=O)NN)C(C)C | bacterial growth | ATCC 19606, 100% Mueller-Hinton broth | 90 min, 37 °C, strain ATCC 19606 | – | > 250 µg/mL
CCn1c(-c2ccc(-c3ccc(F)cc3)cc2)c(-c2ccc(-c3ccc(F)cc3)cc2)n(CC)c1=[Se+][Au-][P+](c1ccccc1)(c1ccccc1)c1ccccc1.[Cl-] | broth microdilution | carbapenem-resistant | 24 h | – | > 40 µM
CCCCCCCCCCCCCC(=O)N[C@H](CCN)C(=O)N[C@H](C(=O)N[C@@H](CCN)C(=O)N[C@@H](CC(C)C)C(=O)N[C@@H](CCN)C(=O)N[C@H](Cc1ccccc1)C(=O)N[C@@H](CC(C)C)C(=O)N[C@@H](CCN)C(=O)N[C@H](Cc1ccc(O)cc1)C(=O)N[C@H](C(=O)N[C@@H](CC(=O)O)C(=O)O)C(C)C)[C@@H](C)O | broth microdilution | BNCC 194496 | – | – | 2 µg/mL
CC[C@H](C)[C@H](NC(=O)[C@H](CCCNC(=N)N)NC(=O)[C@H](Cc1ccccc1)NC(=O)[C@H](CC(C)C)NC(=O)[C@H](CCCCN)NC(=O)[C@H](CO)NC(=O)[C@@H](NC(=O)[C@H](CC(C)C)NC(=O)[C@H](CCCCN)NC(=O)[C@H](C)NC(=O)[C@H](CC(N)=O)NC(=O)[C@H](CCCNC(=N)N)NC(=O)[C@H](Cc1ccc(O)cc1)NC(=O)[C@H](C)NC(=O)[C@@H](NC(=O)[C@H](CCCCN)NC(=O)[C@H](CC(N)=O)NC(=O)[C@H](CCCCN)NC(=O)[C@H](CC(C)C)NC(=O)[C@H](CO)NC(=O)[C@H](CC(C)C)NC(=O)[C@H](C)NC(=O)[C@H](C)NC(=O)[C@H](CO)NC(=O)[C@@H](NC(=O)[C@@H](NC(=O)[C@H](Cc1c[nH]c2ccccc12)NC(=O)[C@@H](NC(=O)[C@H](CO)NC(=O)[C@@H](NC(=O)[C@@H](N)CC(C)C)C(C)C)C(C)C)[C@@H](C)CC)[C@@H](C)CC)C(C)C)C(C)C)C(=O)N[C@@H](C)C(=O)N[C@@H](CC(C)C)C(=O)O | broth microdilution | ATCC 19606 | 24 h, 37 °C | – | 8 µg/mL
CC(C)C[C@@H]1NC(=O)[C@@H](CC(C)C)NC(=O)[C@H](CCN)NC(=O)[C@@H](NC(=O)[C@H](CCN)NC(=O)[C@@H](N)[C@@H](C)O)CCNC(=O)[C@H]([C@@H](C)O)NC(=O)[C@H](CCN)NC(=O)[C@H](CCN)NC1=O | broth microdilution | NDM-2, NRZ 00687, CAMHB with 0.002% polysorbate-80 | 16 h, 37 °C | – | > 64 µg/mL
CC[C@H](C)[C@@H]1NC(=O)[C@@H](CC(C)C)NC(=O)[C@H](CCN)NC(=O)[C@@H](NC(=O)[C@@H](CO)NC(=O)[C@@H](NC(=O)[C@H](CCN)NC(=O)c2ccc(-c3ccccc3)cc2)[C@@H](C)O)CCNC(=O)[C@H](CC(C)C)NC(=O)[C@H](CCN)NC(=O)[C@H](CCN)NC1=O | – | – | – | – | 1 µg/mL
C[C@@H](N)[C@H](O)CCCCCCCC(=O)CCCCCCCCCCCCCC[C@@H](O[C@@H]1O[C@H](CO)[C@@H](O)[C@H](O)[C@H]1O)[C@@H](N)CO | microbial growth, resazurin | ATCC19606 | 6 h | – | 31.6 µM
O=C(NCCNCCO)c1cn(Cc2ccccc2)c2cc(OCc3ccc(C(F)(F)F)cc3)c(Cl)cc2c1=O | – | ATCC 19606 | – | ≥80% growth inhibition | > 32 µg/mL
CC[C@H](C)[C@H](NC(=O)[C@H](CCCCN)NC(=O)[C@H](CC(N)=O)NC(=O)[C@H](CC(C)C)NC(=O)[C@H](Cc1ccccc1)NC(=O)[C@H](CCCCN)NC(=O)[C@H](CCCCNC(=N)N)NC(=O)[C@H](CC(C)C)NC(=O)[C@H](CC(C)C)NC(=O)[C@H](CCCCN)NC(=O)[C@H](CCCCNC(=N)N)NC(=O)[C@H](CC(C)C)NC(=O)CNC(C)=O)C(=O)N[C@@H](CCCCN)C(=O)N[C@@H](CCCCNC(=N)N)C(N)=O | bacterial growth, broth microdilution | multidrug-resistant | – | – | 6.25 µM
CC[C@@H](C)[C@@H](NC(=O)[C@@H](C)NC(=O)[C@@H](CCCCN)NC(=O)[C@@H](CC(C)C)NC(=O)[C@@H](C)NC(=O)[C@H](NC(=O)[C@@H](Cc1c[nH]cn1)NC(=O)[C@@H](CC(C)C)NC(=O)[C@H](NC(=O)[C@H](NC(=O)[C@@H](CCCCN)NC(=O)[C@@H](CCCCN)NC(=O)[C@@H](C)NC(=O)[C@@H](CO)NC(=O)[C@@H](CCCCN)NC(=O)[C@@H](Cc1ccccc1)NC(=O)[C@H](NC(=O)[C@@H](CCCCN)NC(=O)[C@@H](CC(C)C)NC(=O)[C@@H](Cc1ccccc1)NC(=O)[C@@H](CO)NC(=O)[C@@H](CCCCN)NC(=O)[C@@H](Cc1c[nH]c2ccccc12)NC(=O)[C@@H](CCCCN)NC(C)=O)[C@H](C)O)[C@H](C)O)C(C)C)[C@H](C)O)C(=O)N[C@H](CO)C(=O)N[C@H](CO)C(N)=O | – | 899, Mueller-Hinton broth | 24 h, 37 °C | – | 1.5 µM

A few entries again:
Compound | test | test system | conditions | how to read | MIC
CC(C)C[C@@H]1NC(=O)[C@@H](CC(C)C)NC(=O)[C@H](CCN)NC(=O)[C@@H](NC(=O)[C@H](CCN)NC(=O)[C@@H](N)[C@@H](C)O)CCNC(=O)[C@H]([C@@H](C)O)NC(=O)[C@H](CCN)NC(=O)[C@H](CCN)NC1=O | broth microdilution | NDM-2, NRZ 00687, CAMHB with 0.002% polysorbate-80 | 16 h, 37 °C | – | > 64 µg/mL
